Experimental data from different studies.
Protocols differ between the studies behind these lines. Numbers after ± are the reported error.
Sequence of UniProt P51531 (whole entry, looked up): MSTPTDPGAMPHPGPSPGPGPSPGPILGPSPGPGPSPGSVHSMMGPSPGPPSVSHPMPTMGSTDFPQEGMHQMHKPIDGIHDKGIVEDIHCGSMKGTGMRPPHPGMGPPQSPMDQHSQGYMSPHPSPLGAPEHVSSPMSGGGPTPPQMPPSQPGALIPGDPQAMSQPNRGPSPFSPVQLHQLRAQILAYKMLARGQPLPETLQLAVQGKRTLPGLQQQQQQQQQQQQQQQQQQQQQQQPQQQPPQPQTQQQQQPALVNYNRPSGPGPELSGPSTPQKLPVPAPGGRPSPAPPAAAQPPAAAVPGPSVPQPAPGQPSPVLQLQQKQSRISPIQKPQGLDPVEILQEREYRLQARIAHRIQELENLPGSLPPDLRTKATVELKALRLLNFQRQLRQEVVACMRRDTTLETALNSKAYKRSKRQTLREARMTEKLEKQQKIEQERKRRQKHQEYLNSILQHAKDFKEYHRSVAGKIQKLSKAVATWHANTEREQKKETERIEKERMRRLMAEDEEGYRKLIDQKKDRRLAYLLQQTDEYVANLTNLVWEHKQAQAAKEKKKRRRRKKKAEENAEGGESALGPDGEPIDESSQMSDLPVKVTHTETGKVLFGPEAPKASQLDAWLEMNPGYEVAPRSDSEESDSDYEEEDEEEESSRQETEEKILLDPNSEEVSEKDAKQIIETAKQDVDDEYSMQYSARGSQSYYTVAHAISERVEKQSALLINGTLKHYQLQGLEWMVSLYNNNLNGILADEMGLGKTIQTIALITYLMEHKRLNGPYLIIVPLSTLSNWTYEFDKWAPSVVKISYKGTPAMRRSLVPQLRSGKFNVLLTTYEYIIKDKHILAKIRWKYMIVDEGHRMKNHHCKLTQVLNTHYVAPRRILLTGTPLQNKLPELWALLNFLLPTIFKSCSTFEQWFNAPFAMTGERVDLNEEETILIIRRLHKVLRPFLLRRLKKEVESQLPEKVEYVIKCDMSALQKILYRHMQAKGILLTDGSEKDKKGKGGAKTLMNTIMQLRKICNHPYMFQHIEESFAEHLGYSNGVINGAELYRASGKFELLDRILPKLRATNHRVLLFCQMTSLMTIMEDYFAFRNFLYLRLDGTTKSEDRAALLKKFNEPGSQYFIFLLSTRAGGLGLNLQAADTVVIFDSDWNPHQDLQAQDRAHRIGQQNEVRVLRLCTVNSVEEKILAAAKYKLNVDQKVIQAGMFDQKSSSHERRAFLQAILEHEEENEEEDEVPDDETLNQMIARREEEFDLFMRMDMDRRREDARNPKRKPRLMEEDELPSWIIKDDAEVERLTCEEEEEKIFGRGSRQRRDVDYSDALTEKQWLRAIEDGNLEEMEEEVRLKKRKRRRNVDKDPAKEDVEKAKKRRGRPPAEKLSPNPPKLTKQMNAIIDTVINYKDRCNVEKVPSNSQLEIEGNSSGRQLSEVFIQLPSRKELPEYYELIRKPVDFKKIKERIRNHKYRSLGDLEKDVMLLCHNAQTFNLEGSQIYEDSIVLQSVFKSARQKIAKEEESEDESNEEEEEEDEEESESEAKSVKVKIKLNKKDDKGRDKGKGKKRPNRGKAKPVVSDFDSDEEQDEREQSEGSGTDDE
Sequence of UniProt P41252 (whole entry, looked up): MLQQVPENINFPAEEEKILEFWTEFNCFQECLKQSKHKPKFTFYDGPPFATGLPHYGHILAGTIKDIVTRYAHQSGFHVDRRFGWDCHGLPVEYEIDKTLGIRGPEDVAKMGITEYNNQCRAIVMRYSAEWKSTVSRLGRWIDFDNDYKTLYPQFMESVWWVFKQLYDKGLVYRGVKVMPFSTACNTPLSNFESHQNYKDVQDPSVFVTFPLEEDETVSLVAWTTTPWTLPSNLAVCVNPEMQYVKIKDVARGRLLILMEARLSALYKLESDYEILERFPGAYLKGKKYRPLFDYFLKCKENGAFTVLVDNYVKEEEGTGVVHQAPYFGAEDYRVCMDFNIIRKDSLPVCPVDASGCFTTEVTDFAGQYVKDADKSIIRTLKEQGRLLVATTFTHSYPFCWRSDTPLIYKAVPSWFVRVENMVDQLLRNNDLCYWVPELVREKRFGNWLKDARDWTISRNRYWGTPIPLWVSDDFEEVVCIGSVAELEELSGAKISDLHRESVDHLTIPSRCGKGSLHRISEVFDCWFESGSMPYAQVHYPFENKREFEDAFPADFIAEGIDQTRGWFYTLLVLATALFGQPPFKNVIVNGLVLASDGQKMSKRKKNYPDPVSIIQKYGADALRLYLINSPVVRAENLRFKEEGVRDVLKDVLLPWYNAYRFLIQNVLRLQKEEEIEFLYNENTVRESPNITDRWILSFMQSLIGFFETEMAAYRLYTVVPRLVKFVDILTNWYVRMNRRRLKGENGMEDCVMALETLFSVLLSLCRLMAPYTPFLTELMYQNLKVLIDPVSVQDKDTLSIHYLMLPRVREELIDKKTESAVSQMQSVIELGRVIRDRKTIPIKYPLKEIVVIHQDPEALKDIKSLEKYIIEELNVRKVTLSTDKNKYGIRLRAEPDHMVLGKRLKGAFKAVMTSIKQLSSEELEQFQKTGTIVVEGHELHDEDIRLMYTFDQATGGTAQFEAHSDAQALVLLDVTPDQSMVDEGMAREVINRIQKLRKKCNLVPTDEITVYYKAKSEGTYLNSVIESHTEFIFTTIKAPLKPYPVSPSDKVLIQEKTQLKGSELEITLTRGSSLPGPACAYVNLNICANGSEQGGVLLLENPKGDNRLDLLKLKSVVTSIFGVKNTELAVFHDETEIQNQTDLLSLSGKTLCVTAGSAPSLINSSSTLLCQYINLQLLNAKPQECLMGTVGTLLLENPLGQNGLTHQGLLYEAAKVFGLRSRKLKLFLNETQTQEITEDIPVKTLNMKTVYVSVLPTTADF
Sequence of UniProt Q8IYT8 (whole entry, looked up): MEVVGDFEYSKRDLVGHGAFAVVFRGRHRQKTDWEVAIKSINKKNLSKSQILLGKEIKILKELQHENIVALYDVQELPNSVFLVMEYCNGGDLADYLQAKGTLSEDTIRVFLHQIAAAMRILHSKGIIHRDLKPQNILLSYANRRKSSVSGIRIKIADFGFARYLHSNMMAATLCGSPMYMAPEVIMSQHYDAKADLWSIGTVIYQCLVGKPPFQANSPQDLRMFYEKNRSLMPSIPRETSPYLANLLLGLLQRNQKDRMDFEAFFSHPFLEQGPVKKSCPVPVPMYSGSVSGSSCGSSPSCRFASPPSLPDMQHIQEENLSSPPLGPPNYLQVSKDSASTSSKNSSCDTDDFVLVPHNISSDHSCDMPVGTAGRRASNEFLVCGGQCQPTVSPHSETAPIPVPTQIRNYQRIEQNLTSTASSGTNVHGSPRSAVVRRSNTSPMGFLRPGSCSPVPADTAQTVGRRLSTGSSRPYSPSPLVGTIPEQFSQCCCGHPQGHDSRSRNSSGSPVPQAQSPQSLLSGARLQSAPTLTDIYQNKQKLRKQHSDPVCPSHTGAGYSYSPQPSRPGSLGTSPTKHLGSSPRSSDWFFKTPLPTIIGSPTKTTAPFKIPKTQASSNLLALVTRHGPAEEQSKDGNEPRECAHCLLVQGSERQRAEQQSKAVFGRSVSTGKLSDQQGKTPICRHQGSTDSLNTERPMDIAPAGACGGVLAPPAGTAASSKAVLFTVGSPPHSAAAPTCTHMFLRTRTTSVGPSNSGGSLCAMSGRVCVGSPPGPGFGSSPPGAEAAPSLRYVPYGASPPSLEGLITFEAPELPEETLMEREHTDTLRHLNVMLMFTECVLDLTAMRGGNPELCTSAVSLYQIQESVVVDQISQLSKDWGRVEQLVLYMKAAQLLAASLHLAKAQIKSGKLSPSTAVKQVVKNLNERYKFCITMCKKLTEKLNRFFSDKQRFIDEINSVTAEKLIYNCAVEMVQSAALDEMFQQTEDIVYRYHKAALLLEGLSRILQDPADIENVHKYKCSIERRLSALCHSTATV
Sequence of UniProt Q9H1C0 (whole entry, looked up): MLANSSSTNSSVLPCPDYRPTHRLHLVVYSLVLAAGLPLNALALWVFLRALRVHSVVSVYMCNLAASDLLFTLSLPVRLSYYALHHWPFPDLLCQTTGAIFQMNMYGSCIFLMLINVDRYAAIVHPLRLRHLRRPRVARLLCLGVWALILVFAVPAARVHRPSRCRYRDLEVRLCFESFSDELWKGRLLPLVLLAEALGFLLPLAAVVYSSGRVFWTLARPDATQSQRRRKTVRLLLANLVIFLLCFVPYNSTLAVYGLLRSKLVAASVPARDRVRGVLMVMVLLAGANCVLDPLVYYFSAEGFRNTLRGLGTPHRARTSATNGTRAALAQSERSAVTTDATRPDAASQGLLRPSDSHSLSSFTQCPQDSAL
Sequence of UniProt P22303 (whole entry, looked up): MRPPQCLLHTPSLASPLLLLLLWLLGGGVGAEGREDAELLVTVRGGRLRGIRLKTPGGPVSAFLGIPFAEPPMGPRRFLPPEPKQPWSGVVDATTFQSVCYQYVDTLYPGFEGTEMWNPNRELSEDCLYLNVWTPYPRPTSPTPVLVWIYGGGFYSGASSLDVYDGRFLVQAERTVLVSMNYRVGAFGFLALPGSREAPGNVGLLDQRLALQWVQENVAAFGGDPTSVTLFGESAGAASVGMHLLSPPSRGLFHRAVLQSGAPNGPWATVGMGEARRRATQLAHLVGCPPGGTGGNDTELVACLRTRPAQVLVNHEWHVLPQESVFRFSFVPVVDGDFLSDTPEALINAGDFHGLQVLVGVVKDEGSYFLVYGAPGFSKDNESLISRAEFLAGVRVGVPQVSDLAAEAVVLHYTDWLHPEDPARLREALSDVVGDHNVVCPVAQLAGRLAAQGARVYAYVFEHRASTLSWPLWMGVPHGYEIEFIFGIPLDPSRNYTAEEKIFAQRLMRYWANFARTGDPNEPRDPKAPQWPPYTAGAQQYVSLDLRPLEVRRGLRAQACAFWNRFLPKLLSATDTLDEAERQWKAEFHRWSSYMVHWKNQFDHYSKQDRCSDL
Sequence of UniProt O95881 (whole entry, looked up): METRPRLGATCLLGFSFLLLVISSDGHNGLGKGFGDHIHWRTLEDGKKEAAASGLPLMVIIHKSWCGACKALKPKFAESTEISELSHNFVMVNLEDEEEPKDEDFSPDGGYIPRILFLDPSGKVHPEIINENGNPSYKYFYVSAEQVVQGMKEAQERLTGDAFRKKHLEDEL

Nc1ncnc2c1ncn2[C@@H]1O[C@H](COP(=O)(O)OP(=O)(O)NP(=O)(O)O)[C@@H](O)[C@H]1O  ΔH (Cell cycle histidine kinase CckA, cytoplasmic region (Caulobacter vibrioides, UniProt Q9X688); ITC; with: c-di-GMP 100 µM): -2.52 ± 0.352 kcal/mol
C[C@H]1CN(c2n[nH]c3nc(N[C@H]4CC[C@H](NS(=O)(=O)CCC(F)(F)F)CC4)ncc23)CCO1  remaining binding (Isoleucine--tRNA ligase, cytoplasmic (Homo sapiens, UniProt P41252); Kinobeads competition, refers to: IARS; 0.032 µM, unit not given; relative to: vehicle): 0.84
Cc1nn(C)cc1-c1nc2c(N3CCN(Cc4ccc(Cl)cc4)CC3)c(Cl)cnc2[nH]1  remaining binding (DYRK2 (Homo sapiens, UniProt Q92630); KINOMEscan; 1 µM; relative to: DMSO control): 100%
CCc1nc2nc(C)cc(Nc3cc(C)cc(C)c3)n2n1  IC50 ratio (PFF0160c (Plasmodium falciparum, UniProt Q08210, E182D); enzyme activity, DCIP colorimetric; relative to: E182D mutant over wild type): 27
O=C(c1ccc(Cl)cc1)N1CCN2C(=O)N(OC(=O)N3CCOc4ccccc43)C(=O)C2C1 (centres unmarked)  median ratio (FAAH (Homo sapiens, UniProt O00519); enzyme activity, inhibitor, MS-based ABPP; SW-620 in situ; 10 µM, 2 h, 37 °C; relative to: compound over DMSO, lower = stronger inhibition): 1.01
Cc1ncsc1-c1ccc(CNC(=O)[C@@H]2C[C@@H](O)CN2C(=O)[C@@H](NC(=O)C2(F)CC2)C(C)(C)C)c(OCCOc2ccc(CN3CCN(c4cc(-c5ccccc5O)nnc4N)CC3)cc2)c1  Dmax (SMARCA2 (Homo sapiens, UniProt P51531); degrader, immunoblot; SMARCA4 wild-type cells; 96 h, median of twelve cell lines): 96%
CN1CCN(c2cc(-c3ccncc3)c(-c3ccc4ccccc4c3)nn2)CC1  activation (S1PR1 (Homo sapiens, UniProt P21453); agonist, FLIPR; 12.5 µM): -2.4%
Cc1ccc(CCn2c3c(c4cc(Cl)ccc42)CN(C)CC3)cn1  activity class (ACHE (Homo sapiens, UniProt P22303); biochemical; concentration not given): inactive
Cl.NCC(O)c1ccc(O)cc1 (racemic)  koff (Nuclear receptor subfamily 2 group C member 2, ligand-binding domain (Homo sapiens, UniProt P49116); SPR imaging; 600 nM): 4.92e-06 s⁻¹
COc1cc(N)c(Cl)cc1C(=O)NC1CN2CCC1CC2 (centres unmarked)  log2 fold change (LPAR5 (Homo sapiens, UniProt Q9H1C0); β-arrestin recruitment, TANGO luminescence, refers to: GPR92; concentration not given; relative to: basal luminescence): -0.156
COc1ccc2[nH]c3c(c2c1)CCN(C)CC3.Cl  Hill coefficient (CHRNA7 (Homo sapiens, UniProt P36544); ion current, inhibitor, two-electrode voltage clamp; Xenopus laevis oocytes; with: 100 µM acetylcholine): 1.8 ± 0.1
[2H]c1c([2H])c([C@]2([2H])CCCN2C(=O)C(C)(C)Oc2ccc3cn[nH]c3c2)c([2H])c([2H])c1C([2H])([2H])[2H]  remaining binding (ULK2 (Homo sapiens, UniProt Q8IYT8); KINOMEscan; 1 µM; relative to: DMSO control): 86%
COc1ccc(N2C(=O)N(c3c(C)cccc3Cl)Cc3cnc(Nc4ccc(C5CCN(C)CC5)cc4OC)nc32)nc1  inhibition (PKN2 (Homo sapiens, UniProt Q16513); kinase activity; 0.5 µM): 3%
C#CCCCCNC(=O)CI  reactivity ratio (Thioredoxin domain-containing protein 12 (TXNDC12, Homo sapiens, UniProt O95881); mass spectrometry profiling; H460 cell lysate; 100 µM over 10 µM, UniProt O95881; relative to: high over low concentration): 0.964
